Measured values of several laboratories.
Numbers after ± are the reported error. Converted amounts (≈) assume the structure as drawn.

The chains behind the UniProt entries cited, without tags or fusion partners.
UniProt Q9UM73, whole entry T1151M, looked up: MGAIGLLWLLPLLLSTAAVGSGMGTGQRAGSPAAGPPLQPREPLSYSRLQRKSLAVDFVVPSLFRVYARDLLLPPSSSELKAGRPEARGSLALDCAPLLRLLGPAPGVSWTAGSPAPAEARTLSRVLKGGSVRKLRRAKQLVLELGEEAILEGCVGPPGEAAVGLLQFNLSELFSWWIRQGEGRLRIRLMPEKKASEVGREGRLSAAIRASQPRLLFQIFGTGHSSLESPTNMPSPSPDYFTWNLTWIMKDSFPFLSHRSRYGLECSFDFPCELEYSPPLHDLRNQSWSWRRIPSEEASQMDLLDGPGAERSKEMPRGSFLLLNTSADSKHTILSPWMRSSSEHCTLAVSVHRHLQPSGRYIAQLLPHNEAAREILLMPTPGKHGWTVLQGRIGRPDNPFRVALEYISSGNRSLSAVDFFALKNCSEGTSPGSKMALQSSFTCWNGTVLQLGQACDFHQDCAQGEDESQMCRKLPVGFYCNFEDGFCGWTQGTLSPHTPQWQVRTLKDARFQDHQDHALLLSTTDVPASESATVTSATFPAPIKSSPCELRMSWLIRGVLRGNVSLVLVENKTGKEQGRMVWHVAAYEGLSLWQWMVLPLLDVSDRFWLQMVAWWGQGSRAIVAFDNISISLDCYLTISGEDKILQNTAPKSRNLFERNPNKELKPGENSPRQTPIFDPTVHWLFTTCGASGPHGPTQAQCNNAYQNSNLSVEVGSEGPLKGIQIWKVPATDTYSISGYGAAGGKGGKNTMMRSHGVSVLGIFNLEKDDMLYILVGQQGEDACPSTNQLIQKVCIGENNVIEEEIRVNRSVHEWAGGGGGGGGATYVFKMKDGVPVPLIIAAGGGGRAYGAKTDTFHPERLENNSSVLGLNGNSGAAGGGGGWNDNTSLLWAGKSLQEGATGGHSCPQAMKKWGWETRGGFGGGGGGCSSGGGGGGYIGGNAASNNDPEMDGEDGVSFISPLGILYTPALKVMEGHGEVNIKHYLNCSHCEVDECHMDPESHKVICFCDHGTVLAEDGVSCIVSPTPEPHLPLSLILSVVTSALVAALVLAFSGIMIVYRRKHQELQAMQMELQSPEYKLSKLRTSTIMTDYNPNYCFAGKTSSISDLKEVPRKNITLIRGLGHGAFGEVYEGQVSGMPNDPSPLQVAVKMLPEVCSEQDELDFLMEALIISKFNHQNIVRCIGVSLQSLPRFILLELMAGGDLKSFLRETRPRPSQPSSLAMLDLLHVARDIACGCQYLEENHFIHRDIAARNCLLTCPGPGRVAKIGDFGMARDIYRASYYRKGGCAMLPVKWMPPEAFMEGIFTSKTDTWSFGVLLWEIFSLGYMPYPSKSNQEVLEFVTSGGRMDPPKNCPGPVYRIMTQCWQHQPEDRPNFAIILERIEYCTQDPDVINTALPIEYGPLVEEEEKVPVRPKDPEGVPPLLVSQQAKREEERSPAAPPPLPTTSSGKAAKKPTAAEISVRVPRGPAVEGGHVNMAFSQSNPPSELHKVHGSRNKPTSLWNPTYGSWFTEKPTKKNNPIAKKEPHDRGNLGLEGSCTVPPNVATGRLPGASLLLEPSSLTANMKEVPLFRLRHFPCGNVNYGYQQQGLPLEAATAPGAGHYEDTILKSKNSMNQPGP

Cc1ccc(CCNC(=O)c2cnn3c(O)c(Cc4cc(C)ccc4C)c(C)nc23)cc1  IC50 (Zika virus; viral replication; PF-251013-18): 1 to 10 µM
CC1(C)CCC(Cc2cc(O)c(-c3ccccc3)c(=O)[nH]2)CC1  MIC50 (Mycobacterium tuberculosis; inhA D148G resistant mutant): 0.38 µM (≈ 0.118 µg/mL)
CC(C)Cc1nnc2c(C(=O)NC3c4ccccc4-c4ccccc43)cccn12  MIC ratio (Escherichia coli; broth microdilution; MB5746 rpoC D622G; reference: mutant over wild type): > 32
Cc1cc(N(CCCl)CCCl)ccc1C=O  IC50 (CAKI-1; cell growth, inhibitor, MTT): 1.3 mg/L
COCOc1ccc2nc3ccc(=O)cc-3oc2c1  MIC90 (Mycobacterium tuberculosis; mc2 6206 clofazimine-resistant fbiC mutant; 7 days): 46 µM (≈ 11.8 µg/mL)
Cc1ccc(S(=O)(=O)N(C)CC(=O)N(Cc2ccc(C3CCCCC3)cc2)c2ccc(C(=O)O)c(O)c2)cc1  phosphorylation level (NIH3T3/v-Src, PANC-1, MDA-MB-231; immunoblotting, measured: phospho-Shc; concentration not given, 24 h): no effect
CCC(C)C1NC(=O)/C(=C(/C)O)C1=O (centres unmarked)  Km (plasma membrane H+-ATPase (Spinacia oleracea); ATP hydrolysis, measured: ATP; plasma membrane fraction; 1.0 µM): 2560 µM
C1CCCC2(CC1)OOCOCOOC1(CCCCCC1)OO2  IC50 (Jurkat; cytotoxicity, 7-AAD flow cytometry): 7.18 ± 0.17 µM
CO[C@H]1/C=C/O[C@@]2(C)Oc3c(C)c(O)c4c(O)c(c(/C=N/N5CCN(C)CC5)c(O)c4c3C2=O)NC(=O)/C(C)=C\C=C\[C@H](C)[C@H](O)[C@@H](C)[C@@H](O)[C@@H](C)[C@H](OC(C)=O)[C@@H]1C  MIC50 (Mycobacterium bovis; BCG Tac^r9.1, thyA mutant; TA-C-resistant thyA mutant): 0.0016 µM (≈ 0.00132 µg/mL)
COc1ccc2nc3ccc(=O)cc-3oc2c1  MIC90 (Mycobacterium tuberculosis; mc2 6206 PA-824-resistant ddn mutant; 7 days): 1.4 µM (≈ 0.318 µg/mL)
CSc1nc(Cl)cc(Sc2nnc(-c3cc(C(F)(F)F)cc(C(F)(F)F)c3)[nH]2)n1  CFU reduction (Escherichia coli; MC4100; 25 µM, 2 h, 37 °C, together with: PMBN 25 µg/mL): 6 log units
O=c1ccc2nc3ccc(OCc4ccc([N+](=O)[O-])o4)cc3oc-2c1I  MIC90 (Mycobacterium tuberculosis; mc2 6206 PA-824-resistant ddn mutant; 7 days): > 256 µM
CCCCCCC1c2ccc(O)cc2Oc2cc(O)ccc21  MIC (Acinetobacter baumannii; ATCC 9955; together with: PMBN 25 µg/mL): 7.5 mg/L (≈ 25.1 µM)
CC#C/C(=N\OC[C@H]1COCCN1)c1ccc2ncnc(Nc3ccc(OCc4cccc(F)c4)c(Cl)c3)c2c1  IC50 (NCI-N87; cell growth, WST-8; 72 h): 0.0083 ± 0.0026 µM
COCOc1ccc2nc3ccc(=O)c(I)c-3oc2c1  MIC90 (Mycobacterium tuberculosis; mc2 6206 bedaquiline-resistant MmpL5 regulator mutant; 7 days): 58 µM (≈ 22.2 µg/mL)
O=C(Cn1c(-c2ccccn2)nc2ccccc21)Nc1ccc2ccccc2c1  IC50 (IMPDH (human); enzyme activity, inhibitor): > 10 µM
O=c1ccc2[n+]([O-])c3ccc(O)cc3oc-2c1  MIC90 (Mycobacterium tuberculosis; mc2 6206 PA-824-resistant ddn mutant; 7 days): 46 µM (≈ 10.5 µg/mL)
CCCN1CCN(c2ccc3c(c2)C2CC3CCN2C(=O)OCc2ccccc2)CC1 (centres unmarked)  Ki (GABA-A receptor; radioligand binding): > 10 µM
O=c1ccc2nc3ccc(OCc4ccc([N+](=O)[O-])cc4)cc3oc-2c1  MIC90 (Mycobacterium tuberculosis; mc2 6206 clofazimine-resistant fbiC mutant; 7 days): > 256 µM
CCN1CCN(Cc2ccc(NC(=O)c3ccc(C)c(/C=C/c4cnc5[nH]ccc5c4OC)c3)cc2C(F)(F)F)CC1  log2 fold change (ALK (Homo sapiens, UniProt Q9UM73, T1151M); inhibitor, cell-based kinome screen; 5 µM; reference: no inhibitor): 0.692

A few entries again:
CC#C/C(=N\OC[C@H]1COCCN1)c1ccc2ncnc(Nc3ccc(OCc4cccc(F)c4)c(Cl)c3)c2c1  IC50 (NCI-N87; cell growth, WST-8; 72 h): 0.0083 ± 0.0026 µM
CCCN1CCN(c2ccc3c(c2)C2CC3CCN2C(=O)OCc2ccccc2)CC1 (centres unmarked)  Ki (GABA-A receptor; radioligand binding): > 10 µM
COCOc1ccc2nc3ccc(=O)cc-3oc2c1  MIC90 (Mycobacterium tuberculosis; mc2 6206 clofazimine-resistant fbiC mutant; 7 days): 46 µM (≈ 11.8 µg/mL)
